Assay results of several laboratories.
Parts stem from different laboratories: compare values within a part only.
UniProt Q5VT25, sequence (whole entry, looked up): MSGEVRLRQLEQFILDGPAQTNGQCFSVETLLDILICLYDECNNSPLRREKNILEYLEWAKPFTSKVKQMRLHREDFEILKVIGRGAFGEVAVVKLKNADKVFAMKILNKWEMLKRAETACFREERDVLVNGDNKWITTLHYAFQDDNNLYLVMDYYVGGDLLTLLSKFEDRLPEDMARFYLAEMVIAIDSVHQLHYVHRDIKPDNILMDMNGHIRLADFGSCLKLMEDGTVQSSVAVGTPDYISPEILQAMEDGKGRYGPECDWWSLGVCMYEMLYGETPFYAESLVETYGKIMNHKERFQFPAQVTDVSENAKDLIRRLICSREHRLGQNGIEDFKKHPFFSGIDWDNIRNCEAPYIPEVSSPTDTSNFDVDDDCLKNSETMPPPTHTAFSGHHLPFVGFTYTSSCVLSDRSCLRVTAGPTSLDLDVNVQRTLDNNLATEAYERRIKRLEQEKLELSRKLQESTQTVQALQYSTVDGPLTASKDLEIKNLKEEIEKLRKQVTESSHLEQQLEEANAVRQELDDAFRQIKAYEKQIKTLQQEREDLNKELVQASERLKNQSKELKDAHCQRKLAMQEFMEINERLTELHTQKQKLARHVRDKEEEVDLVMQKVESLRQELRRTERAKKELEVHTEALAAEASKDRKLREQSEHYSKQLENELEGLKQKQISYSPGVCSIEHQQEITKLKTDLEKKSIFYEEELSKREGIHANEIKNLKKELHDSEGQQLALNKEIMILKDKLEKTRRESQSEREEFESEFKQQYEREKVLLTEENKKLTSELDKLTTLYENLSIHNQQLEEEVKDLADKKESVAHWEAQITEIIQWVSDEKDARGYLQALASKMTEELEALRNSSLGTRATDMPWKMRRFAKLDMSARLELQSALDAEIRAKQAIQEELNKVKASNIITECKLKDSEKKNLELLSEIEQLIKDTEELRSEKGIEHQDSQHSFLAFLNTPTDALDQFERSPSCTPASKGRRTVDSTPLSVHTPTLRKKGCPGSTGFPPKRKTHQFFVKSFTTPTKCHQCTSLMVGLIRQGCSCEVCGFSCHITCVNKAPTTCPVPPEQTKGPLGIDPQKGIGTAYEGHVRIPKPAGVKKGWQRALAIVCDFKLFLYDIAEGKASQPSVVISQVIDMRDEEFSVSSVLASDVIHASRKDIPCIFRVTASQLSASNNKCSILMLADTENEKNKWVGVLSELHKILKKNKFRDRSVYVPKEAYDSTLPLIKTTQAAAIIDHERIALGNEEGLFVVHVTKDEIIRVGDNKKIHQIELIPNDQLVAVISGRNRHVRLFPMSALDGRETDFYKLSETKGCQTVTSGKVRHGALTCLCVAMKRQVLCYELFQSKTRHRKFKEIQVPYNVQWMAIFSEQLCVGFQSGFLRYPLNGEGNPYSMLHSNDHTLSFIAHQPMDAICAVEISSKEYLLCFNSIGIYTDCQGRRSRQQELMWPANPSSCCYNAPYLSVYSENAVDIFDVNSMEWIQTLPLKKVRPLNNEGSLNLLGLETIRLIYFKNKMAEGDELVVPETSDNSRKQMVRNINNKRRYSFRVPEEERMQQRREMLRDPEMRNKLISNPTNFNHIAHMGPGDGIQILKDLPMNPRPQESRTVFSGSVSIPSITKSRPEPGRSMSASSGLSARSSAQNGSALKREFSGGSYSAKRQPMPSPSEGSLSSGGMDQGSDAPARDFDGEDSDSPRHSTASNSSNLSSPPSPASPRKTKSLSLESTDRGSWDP

Sample 1 — method: RNA Bind-n-Seq; form: RNA; sample: in vitro; tested at: 20 nM; setting: 6-mer, flanks averaged, single round; with: 150 mM KCl; relative to: input library; reading: higher = stronger binding
Target: TAR DNA-binding protein 43, full length, His tag (TARDBP, Homo sapiens, UniProt Q13148, residues 1-414)
Strand | 6-mer enrichment (R)
UCAGUC | 0.587
UGCGGA | 1.47
GCAUAC | 0.679
AGUCGU | 0.746
GAAGAC | 0.852
GGAUCC | 0.889
AAUCCU | 0.559
CAUGCC | 0.659

Sample 2 — method: protein-binding microarray; form: double-stranded DNA, one strand shown; sample: in vitro; tested at: 2540 nM top; setting: 60-bp whole probe; with: salmon DNA 0.4 mg/ml; relative to: random background probes; reading: higher = stronger binding; shared flanks, not repeated: GCCTAGCAC … GTCTTGATTCGCTTGACGCTGCTG
Target: Interferon regulatory factor 3, full length, phosphomimetic (IRF3, Homo sapiens, UniProt Q14653, residues 1-427, S386D/S396D/S398D/S402D/T404D/S405D)
UniProt Q14653, sequence (whole entry, unmodified, looked up): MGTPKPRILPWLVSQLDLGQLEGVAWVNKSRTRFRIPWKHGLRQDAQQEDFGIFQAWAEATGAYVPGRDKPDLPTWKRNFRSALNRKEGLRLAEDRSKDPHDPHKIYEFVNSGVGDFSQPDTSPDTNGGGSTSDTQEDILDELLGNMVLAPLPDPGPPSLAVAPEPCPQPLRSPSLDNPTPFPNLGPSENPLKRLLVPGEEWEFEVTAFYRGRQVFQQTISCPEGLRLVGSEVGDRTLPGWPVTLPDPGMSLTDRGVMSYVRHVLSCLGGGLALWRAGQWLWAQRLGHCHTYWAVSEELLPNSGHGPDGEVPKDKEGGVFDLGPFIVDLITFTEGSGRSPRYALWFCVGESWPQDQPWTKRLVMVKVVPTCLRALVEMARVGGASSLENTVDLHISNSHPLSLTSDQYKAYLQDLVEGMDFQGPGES
Strand | fitted relative affinity [z-score]
TGTTTTTCATTGTTTTTCATCGTGCTA | 1.34
TCATGTCCCTGTTTCTAACTGTGCTAG | 1.18
GACGGTTCGCTTTTCCTGACGTGCTAG | 2.49
ATAGATATCAGACTGGATTAGTGCTAG | 0.147
GACGGTTTCGGGTTTCGTGACGTGCTA | 5.34
TTAGGTATCAACTTTCGGTTAGTGCTA | 2.05
TTAGATATCGGGACTGGATTCGTGCTA | -0.03
TTAGGTATCGCGTTTCGGTTAGTGCTA | 2.77

Sample 3 — method: RNAcompete; form: RNA; sample: in vitro; tested at: 20 nM; setting: 7-mer, probes averaged, single round; relative to: mean of 7-mers; reading: higher = stronger binding
Target: PABPC1L2, full length, GST fusion (mouse, UniProt A0ABA7IW68)
Construct (chain): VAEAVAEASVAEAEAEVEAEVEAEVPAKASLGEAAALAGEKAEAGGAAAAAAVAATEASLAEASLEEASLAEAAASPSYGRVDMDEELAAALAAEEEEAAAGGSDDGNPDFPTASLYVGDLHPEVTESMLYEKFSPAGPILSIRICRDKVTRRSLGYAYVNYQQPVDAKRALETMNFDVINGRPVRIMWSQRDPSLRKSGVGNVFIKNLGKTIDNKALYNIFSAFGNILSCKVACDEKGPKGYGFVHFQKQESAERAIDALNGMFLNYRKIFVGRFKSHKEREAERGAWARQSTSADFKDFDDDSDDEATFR
Strand | 7-mer Z-score
CUUUUAU | 0.0642
UGGACGA | -0.103
AUAAUCA | -0.0337
UCUUAUC | -0.344
CACGCCA | -0.26
CAUCGAG | -0.0754
CCCAAUG | -0.336
CCUAGAU | -0.171

Other studies, line by line
Structure (SMILES) | target | assay | setting | scale | endpoint | value
O=C1NC(=O)c2c1c1c3ccccc3[nH]c1n1cncc21 | Serine/threonine-protein kinase MRCK alpha (CDC42BPA, Homo sapiens, UniProt Q5VT25) | enzyme activity, inhibitor | 0.5 µM | relative to: control | remaining activity | 92.7%

A few entries again (sample 2):
Strand | fitted relative affinity [z-score]
GACGGTTCGCTTTTCCTGACGTGCTAG | 2.49
ATAGATATCAGACTGGATTAGTGCTAG | 0.147
